{"data": "Assay results pooled from the literature", "cell line": "HEK293", "note": "Lines come from different studies, so protocols differ."}
{"SMILES": "Cc1ccc(-n2cc(CSc3nc4ccccc4n3Cc3cn(-c4ccc(C)cc4)nn3)nn2)cc1", "technique": "MTT", "tested at": "500 ppm", "endpoint": "viability", "result": "7.02%"}
{"SMILES": "CC[C@H]1OC(=O)[C@H](C)[C@@H](OC(=O)Cc2cccc3ccccc23)[C@H](C)[C@@H](O[C@@H]2O[C@H](C)C[C@H](N(C)C)[C@H]2O)[C@](C)(OC)C[C@@H](C)C(=O)[C@H](C)[C@@H](O)[C@]1(C)O", "read-out": "cell growth or viability", "endpoint": "CC50", "result": "> 32 µg/mL"}
{"SMILES": "c1cc2nc(c1)-c1cccc(n1)CCCc1ccc(cc1)OCCCCCCOc1ccc(cc1)CCC2", "read-out": "cell growth or viability", "technique": "MTT", "tested at": "100 µM", "time": "24 h", "endpoint": "viability", "result": "63.8%"}
{"SMILES": "CC[C@H]1OC(=O)[C@H](C)[C@@H](OC(=O)Cc2c(F)cc([N+](=O)[O-])cc2F)[C@H](C)[C@@H](O[C@@H]2O[C@H](C)C[C@H](N(C)C)[C@H]2O)[C@](C)(OC)C[C@@H](C)C(=O)[C@H](C)[C@@H](O)[C@]1(C)O", "read-out": "cell growth or viability", "endpoint": "CC50", "result": "> 32 µg/mL"}
{"SMILES": "CC[C@H](C)[C@@H](C(=O)N[C@@H](Cc1ccc(O)cc1)C(=O)N1CCC[C@H]1C(=O)N[C@@H](Cc1ccccc1)C(=O)O)n1cc(C(Cc2ccc(O)cc2)NC(=O)[C@@H](NC(=O)[C@H](CCCNC(=N)N)NC(=O)[C@@H](N)CC(=O)O)C(C)C)nn1 (stereo partly drawn)", "read-out": "cell growth or viability", "technique": "MTT", "tested at": "200 µM", "time": "24 h", "endpoint": "viability", "result": "67.3%"}
{"SMILES": "N=C(N)NCCC[C@@H]1NC(=O)[C@H](CCCNC(=N)N)NC(=O)[C@@H](C(c2ccccc2)c2ccccc2)NC(=O)[C@H](Cc2c[nH]c3ccccc23)NC(=O)[C@@H](C(c2ccccc2)c2ccccc2)NC(=O)[C@@H](CCCNC(=N)N)NC(=O)[C@@H](CCCNC(=N)N)NC1=O", "read-out": "cell growth or viability", "technique": "MTS", "tested at": "100 µg/mL", "time": "24 h", "endpoint": "viability", "result": "> 90%"}
{"SMILES": "COc1c(Br)cc(CCNC2=CC3=NCCc4c[nH]c(c43)C2=O)cc1Br", "read-out": "cell growth or viability", "technique": "MTT", "time": "72 h", "endpoint": "CC50", "result": "4 µM"}
{"SMILES": "CC[C@H]1OC(=O)[C@H](C)[C@@H](OC(=O)c2ccc(N)cc2)[C@H](C)[C@@H](O[C@@H]2O[C@H](C)C[C@H](N(C)C)[C@H]2O)[C@](C)(OC)C[C@@H](C)C(=O)[C@H](C)[C@@H](O)[C@]1(C)O", "read-out": "cell growth or viability", "endpoint": "CC50", "result": "> 32 µg/mL"}
{"SMILES": "CN1CCCNC(=O)c2cccc(c2)C(=O)NCCCN(C)CCCNc2cccc3c2C(=O)c2cccc(c2C3=O)NCCC1", "read-out": "cell growth or viability", "technique": "CCK-8", "tested at": "5 µM", "time": "48 h", "endpoint": "viability", "result": "12%"}
{"note": "Some of these lines once more:"}
{"SMILES": "CC[C@H]1OC(=O)[C@H](C)[C@@H](OC(=O)Cc2c(F)cc([N+](=O)[O-])cc2F)[C@H](C)[C@@H](O[C@@H]2O[C@H](C)C[C@H](N(C)C)[C@H]2O)[C@](C)(OC)C[C@@H](C)C(=O)[C@H](C)[C@@H](O)[C@]1(C)O", "read-out": "cell growth or viability", "endpoint": "CC50", "result": "> 32 µg/mL"}
